# Measured values gathered from unrelated publications.
# Lines come from different studies, so protocols differ. ± gives the spread as reported.
# UniProt Q13310, sequence (whole entry, looked up): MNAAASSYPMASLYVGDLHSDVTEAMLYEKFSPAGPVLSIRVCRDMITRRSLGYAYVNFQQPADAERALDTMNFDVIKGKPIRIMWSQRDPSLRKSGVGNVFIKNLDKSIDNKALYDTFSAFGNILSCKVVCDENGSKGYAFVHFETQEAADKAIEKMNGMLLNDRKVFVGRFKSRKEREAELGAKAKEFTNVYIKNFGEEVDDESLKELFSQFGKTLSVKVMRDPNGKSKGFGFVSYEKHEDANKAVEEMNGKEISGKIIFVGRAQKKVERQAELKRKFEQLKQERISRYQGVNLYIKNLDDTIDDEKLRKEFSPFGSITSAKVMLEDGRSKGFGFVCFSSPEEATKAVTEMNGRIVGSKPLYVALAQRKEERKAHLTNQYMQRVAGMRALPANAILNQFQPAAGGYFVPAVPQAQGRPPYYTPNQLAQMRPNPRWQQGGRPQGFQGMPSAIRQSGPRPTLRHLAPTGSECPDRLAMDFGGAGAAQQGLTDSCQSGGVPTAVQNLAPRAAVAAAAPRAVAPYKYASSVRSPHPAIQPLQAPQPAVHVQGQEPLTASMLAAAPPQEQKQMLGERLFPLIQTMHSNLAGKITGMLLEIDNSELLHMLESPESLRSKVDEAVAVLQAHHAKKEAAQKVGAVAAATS
# UniProt P09488, sequence (whole entry, looked up): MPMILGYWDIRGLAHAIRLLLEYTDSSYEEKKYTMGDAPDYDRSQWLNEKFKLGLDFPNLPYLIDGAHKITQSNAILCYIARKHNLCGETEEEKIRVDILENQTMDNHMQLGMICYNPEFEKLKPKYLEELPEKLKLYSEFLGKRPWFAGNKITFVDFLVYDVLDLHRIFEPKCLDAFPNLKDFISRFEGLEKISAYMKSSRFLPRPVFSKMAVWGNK
# UniProt Q9UMR5, sequence (whole entry, looked up): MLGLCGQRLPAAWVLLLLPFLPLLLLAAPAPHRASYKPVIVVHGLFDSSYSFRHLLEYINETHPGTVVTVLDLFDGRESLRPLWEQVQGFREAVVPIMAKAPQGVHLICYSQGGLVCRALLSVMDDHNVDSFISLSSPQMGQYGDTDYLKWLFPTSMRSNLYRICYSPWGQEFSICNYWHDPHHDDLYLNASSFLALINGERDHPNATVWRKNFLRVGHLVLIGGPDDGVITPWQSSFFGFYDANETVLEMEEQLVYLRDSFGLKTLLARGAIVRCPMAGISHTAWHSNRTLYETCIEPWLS
# UniProt Q9HCP0, sequence (whole entry, looked up): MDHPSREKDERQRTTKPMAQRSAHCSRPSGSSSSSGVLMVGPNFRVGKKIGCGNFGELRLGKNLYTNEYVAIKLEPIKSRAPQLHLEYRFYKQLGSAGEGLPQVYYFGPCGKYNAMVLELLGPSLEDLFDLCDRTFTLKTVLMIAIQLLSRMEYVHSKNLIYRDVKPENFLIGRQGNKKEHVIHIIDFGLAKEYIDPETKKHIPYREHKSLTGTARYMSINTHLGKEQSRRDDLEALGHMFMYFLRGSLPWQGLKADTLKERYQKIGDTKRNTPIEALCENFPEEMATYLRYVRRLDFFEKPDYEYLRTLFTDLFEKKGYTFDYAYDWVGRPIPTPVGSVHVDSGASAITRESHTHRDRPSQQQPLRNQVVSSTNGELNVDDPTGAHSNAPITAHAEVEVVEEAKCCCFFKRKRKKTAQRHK
# UniProt Q96FL8, sequence (whole entry, looked up): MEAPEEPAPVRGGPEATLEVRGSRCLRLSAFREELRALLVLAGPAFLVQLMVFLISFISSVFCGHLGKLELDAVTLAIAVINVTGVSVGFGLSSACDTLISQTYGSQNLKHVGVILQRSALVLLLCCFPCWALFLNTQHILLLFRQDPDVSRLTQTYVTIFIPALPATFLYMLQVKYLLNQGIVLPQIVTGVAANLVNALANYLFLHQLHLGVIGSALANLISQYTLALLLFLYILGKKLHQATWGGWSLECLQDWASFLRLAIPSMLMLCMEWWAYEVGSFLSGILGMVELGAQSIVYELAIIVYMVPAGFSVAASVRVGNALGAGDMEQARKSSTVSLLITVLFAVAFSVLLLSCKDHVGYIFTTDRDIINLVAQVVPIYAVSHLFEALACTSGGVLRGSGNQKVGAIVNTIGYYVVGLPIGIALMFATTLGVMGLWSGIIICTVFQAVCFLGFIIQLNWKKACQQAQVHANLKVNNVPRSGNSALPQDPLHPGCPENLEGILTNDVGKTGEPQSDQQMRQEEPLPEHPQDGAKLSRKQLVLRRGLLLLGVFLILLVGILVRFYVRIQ
Structure (SMILES),target or system,assay,test system,conditions,scale,measurement,result
Cc1cc(C(=O)NC(C)(C)COc2cccc3c2C(N)=NS(=O)(=O)N3)cc(C)n1,Salmonella typhimurium,"Ames test, confirmatory",TA98,333 µg/plate,reference: solvent control,revertant ratio,0.7
CC[C@H](C)[C@@H]1NC(=O)[C@@H]2CCCN2C(=O)[C@H](CC(C)C)NC(=O)[C@H](CC(C)C)NC(=O)CNC(=O)[C@@H](NC(=O)[C@@H](NC(=O)[C@H](CC(=O)O)NC(=O)CNC(=O)[C@@H](NC(=O)[C@H](C)NC(=O)CNC(=O)[C@H](CCCCN)NC(=O)[C@H](CC(C)C)NC(=O)[C@H](CC(C)C)NC(=O)[C@H](CCCCN)NC(=O)CNC(=O)[C@@H](NC(=O)[C@@H](N)CC(C)C)C(C)C)C(C)C)C(C)C)CSSC[C@@H](C(=O)O)NC1=O,,"RNA-seq, item: Lgr6","mouse, traumatic brain injury model, frontal cortex and hippocampus",dose not given,reference: TBI alone,log2 fold change,-1.39
CN1CC[C@@H](c2c(O)cc(O)c3c(=O)cc(-c4ccc(C(F)(F)F)cc4Cl)oc23)[C@@H]1CO,,item: Dizziness,B-cell malignancies or AML,"oral, 50 mg, continuous dosing",,patients with adverse event,12.5%
C#Cc1ccc2c(c1)C(c1ccccn1)=NCc1c(-c3cnco3)ncn1-2.Cl,,,DMF,"24 h, 25 °C, thermodynamic equilibrium",,solubility,4610 µg/mL
CC[C@H](C)[C@H](NC(=O)[C@H](CCCCN)NC(=O)[C@H](CCCNC(=N)N)NC(=O)[C@H](CCCCN)NC(=O)[C@H](CCCNC(=N)N)NC(=O)[C@H](CCCCN)NC(=O)[C@@H](N)CCCNC(=N)N)C(=O)N[C@@H](CO)C(=O)N[C@@H](Cc1ccccc1)C(=O)N[C@@H](CC(C)C)C(=O)NCC(=O)N[C@@H](CO)C(=O)N[C@@H](CCCCN)C(=O)N[C@H](C(=O)N[C@H](C(=O)N[C@H](C(=O)N[C@@H](CC(C)C)C(=O)N[C@@H](CC(C)C)C(=O)N[C@@H](CCCCN)C(=O)N[C@@H](CCCNC(=N)N)C(N)=O)C(C)C)C(C)C)C(C)C,human erythrocytes,,,"400 µM, 1 h",reference: Triton X-100,hemolysis,23%
C[C@H]1CN(c2n[nH]c3nc(N[C@H]4CC[C@H](NS(=O)(=O)CCC(F)(F)F)CC4)ncc23)CCO1,"Polyadenylate-binding protein 4 (Homo sapiens, UniProt Q13310)","Kinobeads competition, item: PABPC4",,"20 µM, unit not given",reference: vehicle,remaining binding,1.24
COc1cccc(-c2n[nH]c(SCc3ccccn3)n2)c1OC,Escherichia coli,"Ames test, preincubation",WP2 uvrA,"5.0 mg/plate, without S9",,revertant colonies per plate,12
CC(C)CC(=O)OC[C@H]1O[C@@](C#N)(c2ccc3c(N)ncnn23)[C@H](O)[C@@H]1O,"ABCB1 (Homo sapiens, UniProt P08183)",basolateral to apical transport,Caco-2,"9 µM, 2 h, added: zosuquidar 25 µM",,recovery,67%
CC[C@H](C)[C@H](NC(=O)[C@H](Cc1ccccc1)NC(=O)[C@H](CCC(=O)O)NC(=O)[C@H](CCCNC(=N)N)NC(=O)[C@H](C)NC(=O)[C@H](C)NC(=O)[C@H](CCC(N)=O)NC(=O)[C@H](CCC(=O)O)NC(=O)[C@H](CCC(=O)O)NC(=O)[C@H](CC(C)C)NC(=O)[C@H](Cc1ccc(O)cc1)NC(=O)[C@H](CO)NC(=O)[C@H](CO)NC(=O)[C@@H](NC(=O)[C@H](CC(=O)O)NC(=O)[C@H](CO)NC(=O)[C@@H](NC(=O)[C@H](Cc1ccccc1)NC(=O)[C@@H](NC(=O)CNC(=O)[C@H](CCC(=O)O)NC(=O)[C@H](C)NC(=O)CCc1c[nH]cn1)[C@@H](C)O)[C@@H](C)O)C(C)C)C(=O)N[C@@H](C)C(=O)N[C@@H](Cc1c[nH]c2ccccc12)C(=O)N[C@@H](CC(C)C)C(=O)N[C@H](C(=O)N[C@@H](CCCNC(=N)N)C(=O)NCC(=O)N[C@@H](CCCNC(=N)N)C(=O)N[C@@H](CCCCNC(=O)COCCOCCNC(=O)COCCOCCNC(=O)CC[C@H](NC(=O)CCCCCCCCCCCCCCCCC(=O)O)C(=O)O)C(=O)NCC(=O)NCC(=O)N[C@@H](CO)C(=O)N[C@@H](CCCCNc1c(NCCCCCN(O)C(=O)CCC(=O)NCCCCCN(O)C(=O)CCC(=O)NCCCCCN(O)C(C)=O)c(=O)c1=O)C(=O)O)C(C)C [zirconium-89 labelled],,,"rat, intestine","sc, 3 nmol/kg, 72 h, ex vivo",,tissue uptake,0.1 %ID/g
Cc1onc(-c2c(F)cccc2Cl)c1C(=O)N[C@@H]1C(=O)N2[C@@H]1SC(C)(C)[C@@H]2C(=O)O,,,human whole blood,"concentration not given, 24 h, 4 °C",,deviation from nominal concentration,-3.6%
CCN(CC)C(=O)[C@@H]1C=C2c3cccc4[nH]cc(c34)C[C@H]2N(C)C1,,item: lack of energy,healthy volunteers,"dose not given, 12 to 24 h","reference: placebo, direction not given",List of Complaints score,3
CCCCCCCCc1ccc(CCC(N)(CO)CO)cc1,"SLC47A1 (Homo sapiens, UniProt Q96FL8)","transport, inhibitor",transiently transfected cells,"100 µM, 10 (unit not given), added: metformin",,inhibition,10.5%
O=C(c1ccc(Cl)cc1)N1CCN2C(=O)N(OC(=O)N3CCOc4ccccc43)C(=O)C2C1 (stereo not drawn),"PPT2 (Homo sapiens, UniProt Q9UMR5)","enzyme activity, inhibitor, MS-based ABPP",SW-620 conditioned medium,"10 µM, 1 h, 37 °C","reference: compound over DMSO, lower = stronger inhibition",median ratio,1.91
COc1ccc(N2C(=O)N(c3c(C)cccc3Cl)Cc3cnc(Nc4ccc(C5CCN(C)CC5)cc4OC)nc32)nc1,"CSNK1G1 (Homo sapiens, UniProt Q9HCP0)","kinase activity, inhibitor",,"0.5 µM, kinase CK1-GAMMA1",,inhibition,1.13%
O=C(O)C[C@H](NC(=O)[C@H](CC(=O)O)NC(=O)[C@H](CC(=O)O)NC(=O)[C@H](CC(=O)O)NC(=O)[C@H](CC(=O)O)NC(=O)[C@H](CC(=O)O)NC(=O)[C@H](CC(=O)O)NC(=O)[C@H](CC(=O)O)NC(=O)[C@H](CC(=O)O)NC(=O)[C@H](CC(=O)O)NC(=O)[C@H](CC(=O)O)NC(=O)[C@H](CCCCNC(=O)c1ccc(C(=O)NCCOCCOB2BBBBBB3BBBB3B2)cc1)NC(=O)CN1CCN(CC(=O)O)CCN(CC(=O)O)CCN(CC(=O)O)CC1)C(=O)O [gallium-67 labelled],,gamma counting,"ddY mouse, male, 6 weeks old, pancreas","intravenous, 37 kBq, 10 min",,tissue uptake,1.36 %ID/g
CC[C@H](C)[C@H](NC(=O)[C@H](CC(C)C)NC(=O)[C@@H](NC(=O)[C@@H](NC(=O)[C@@H](NC(=O)[C@H](CCCNC(=N)N)NC(=O)[C@H](CCCNC(=N)N)NC(=O)[C@H](CCCNC(=N)N)NC(=O)[C@@H](N)CCCNC(=N)N)C(C)C)[C@@H](C)CC)[C@@H](C)CC)C(=O)N[C@H](C(=O)N[C@@H](CC(C)C)C(=O)N[C@@H](CCCNC(=N)N)C(=O)N[C@@H](CCCNC(=N)N)C(=O)N[C@@H](CCCNC(=N)N)C(=O)N[C@@H](CCCNC(=N)N)C(=O)N[C@@H](Cc1ccccc1)C(=O)N[C@@H](CO)C(=O)N[C@@H](C)C(=O)N[C@@H](Cc1ccc(O)cc1)C(N)=O)C(C)C,human erythrocytes,,,"400 µM, 1 h",reference: Triton X-100,hemolysis,19%
COc1c(CCC[P+](c2ccccc2)(c2ccccc2)c2ccccc2)cc2c(c1OC)OCO2.[I-],RPMI-8226,SRB,,,,TGI,-5.77 log M
C=C1C[C@@H]2[C@H](CC[C@]3(C)C(=O)CC[C@@H]23)[C@@]2(C)C=CC(=O)C=C12,"GSTM1 (Homo sapiens, UniProt P09488)","substrate, recombinant enzyme",,"250 µM, 1 h, 37 °C, enzyme 2.5 ng/µL, active if above 3-fold of mock, added: glutathione 5 mM",,glutathione conjugation,active
[Cl-].[Cl-].[Pt+2].[Ru+2].c1ccc(-c2nc3ccccc3nc2-c2ccccn2)nc1.c1cnc2c(c1)ccc1cccnc12.c1cnc2c(c1)ccc1cccnc12,Danio rerio,,embryos,"30 µM, 72 h",,survival rate,83.3 ± 3.1%
O=c1ccc2ccccc2o1,HepG2,item: steatosis,,"concentration not given, 24 h, phospholipidosis and steatosis panel",,probability of response,37.9%
CC(=O)N1CCC(C(=O)N2CCN3C(=O)c4cc(-c5ccccc5)ccc4NC(=O)C3C2)CC1 (stereo not drawn),Salmonella typhimurium,,TA100,"50 µg/plate, without S9",,revertants per plate,94
COc1cc2c(Oc3ccc4[nH]c(C)cc4c3F)ccnc2cc1OCC1(N)CC1,,,paediatric recurrent refractory sarcoma,8 mg,,grade 3 Dizzy,0%
CC[C@@H](C)[C@@H](NC(=O)[C@@H](CC(C)C)NC(=O)[C@@H](CCCNC(=N)N)NC(=O)[C@@H](CCCNC(=N)N)NC(=O)[C@@H](CCCNC(=N)N)NC(=O)[C@@H](CCCNC(=N)N)NC(=O)[C@@H](CC(C)C)NC(=O)[C@H](NC(=O)[C@H](NC(=O)[C@H](NC(=O)[C@@H](CC(C)C)NC(=O)[C@@H](CCCNC(=N)N)NC(=O)[C@@H](CO)NC(=O)[C@H](N)CO)C(C)C)[C@H](C)CC)[C@H](C)CC)C(=O)N[C@H](CO)C(=O)N[C@H](CCCNC(=N)N)C(=O)N[C@H](CCCNC(=N)N)C(=O)N[C@H](CCCNC(=N)N)C(=O)N[C@H](CCCNC(=N)N)C(N)=O,human erythrocytes,,,"400 µM, 1 h",reference: Triton X-100,hemolysis,18%
CO[C@H]1C[C@@H]2CC[C@@H](C)[C@@](O)(O2)C(=O)C(=O)N2CCCC[C@H]2C(=O)O[C@H]([C@H](C)C[C@@H]2CC[C@@H](OC(=O)NCCOCCOCCOCCOCCOCCOCCOCCOCCC(=O)N3CCc4cc(Cn5nc(-c6ccc7oc(N)nc7c6)c6c(N)ncnc65)ccc4C3)[C@H](OC)C2)C[C@@H](O)[C@H](C)/C=C(\C)[C@@H](O)[C@@H](OC)C(=O)[C@H](C)C[C@H](C)/C=C/C=C/C=C/1C,,,patients with advanced solid tumours,"intravenous, 10 mg weekly, grade 3 or higher",,decreased appetite incidence,0%
COc1cc(Nc2ncc(F)c(Nc3ccc4c(n3)NC(=O)C(C)(C)O4)n2)cc(OC)c1OC,AMPA receptor,binding,,,,IC50,> 10 µM
CC[C@H](C)[C@H](NC(=O)[C@H](CCCNC(=N)N)NC(=O)[C@H](CCCNC(=N)N)NC(=O)[C@H](CCCNC(=N)N)NC(=O)[C@H](CCCNC(=N)N)NC(=O)[C@H](CCCNC(=N)N)NC(=O)[C@@H](N)CCCNC(=N)N)C(=O)N[C@@H](CO)C(=O)N[C@@H](Cc1ccccc1)C(=O)N[C@@H](CC(C)C)C(=O)NCC(=O)N[C@@H](CO)C(=O)N[C@@H](CCCCN)C(=O)N[C@H](C(=O)N[C@H](C(=O)N[C@H](C(=O)N[C@@H](CC(C)C)C(=O)N[C@@H](CC(C)C)C(=O)N[C@@H](CCCCN)C(=O)N[C@@H](CCCNC(=N)N)C(=O)N[C@@H](CCCNC(=N)N)C(=O)N[C@@H](CCCNC(=N)N)C(=O)N[C@@H](CCCNC(=N)N)C(=O)N[C@@H](CCCNC(=N)N)C(N)=O)C(C)C)C(C)C)C(C)C,human erythrocytes,,,"400 µM, 1 h",reference: Triton X-100,hemolysis,20%
C[C@@H](O)[C@@H](CO)NC(=O)[C@@H](CCCNC(=N)N)NC(=O)[C@@H]1CCCN1C(=O)[C@@H]1CSSC[C@H](NC(=O)[C@H](Cc2ccccc2)NC(=O)CN2CCN(CC(=O)O)CCN(CC(=O)O)CCN(CC(=O)O)CC2)C(=O)N[C@@H](Cc2ccc(O)cc2)C(=O)N[C@@H](Cc2ccccc2)C(=O)N[C@@H](CCC(N)=O)C(=O)N[C@@H](CC(N)=O)C(=O)N1 [gallium-68 labelled],,,"Wistar rat, healthy, urinary bladder","intravenous, 8 MBq, 30 min, mean",,tissue uptake,4.34 %ID/g

# Some of these lines once more:
Structure (SMILES),target or system,assay,test system,conditions,scale,measurement,result
CC(=O)N1CCC(C(=O)N2CCN3C(=O)c4cc(-c5ccccc5)ccc4NC(=O)C3C2)CC1 (stereo not drawn),Salmonella typhimurium,,TA100,"50 µg/plate, without S9",,revertants per plate,94
C=C1C[C@@H]2[C@H](CC[C@]3(C)C(=O)CC[C@@H]23)[C@@]2(C)C=CC(=O)C=C12,"GSTM1 (Homo sapiens, UniProt P09488)","substrate, recombinant enzyme",,"250 µM, 1 h, 37 °C, enzyme 2.5 ng/µL, active if above 3-fold of mock, added: glutathione 5 mM",,glutathione conjugation,active
